# Assay results collected from several papers.
# Protocols differ between the studies behind these lines. Values joined by “and” are separate records of one study, mostly repeats; a detail may differ. Numbers after ± are the reported error.
Structure (SMILES),assay,system,setting,tissue uptake
COc1ccc2c(c1)C(C)(C)C(/C=C/C1=C(Oc3ccc(C(=O)NCCCCOc4cc(CN(Cc5ccccn5)Cc5ccccn5)cc(CN(Cc5ccccn5)Cc5ccccn5)c4)cc3)C(=C/C=C3/N(CCCCS(=O)(=O)[O-])c4ccc(OC)cc4C3(C)C)CCC1)=[N+]2CCCCS(=O)(=O)[O-].O=[N+]([O-])[O-].O=[N+]([O-])[O-].[99Tc+].[C-]#[O+].[C-]#[O+].[C-]#[O+].[Zn+2],,"healthy BALB/c mice, liver",12 h,23.4 %ID/g and 19 %ID/g and 20 %ID/g
Cc1cc(C)n(CCN(CCN)CCCCCCNC(=O)[C@@H](N)Cc2c[nH]cn2)n1.[99Tc+].[C-]#[O+].[C-]#[O+].[C-]#[O+],,"BALB/c nude mice, A549 xenograft, bone","intravenous, 24 h",0.1 ± 0.01 %IA/g
CCCC[C@H](NC(=O)CNC(=O)CNC(=O)[C@H](CCCCNC(=O)[C@H](CC(=O)O)NC(=O)C(C)c1ccc(CC(C)C)cc1)NC(=O)CN1CCN(CC(=O)O)CCN(CC(=O)O)CCN(CC(=O)O)CC1)C(=O)N[C@H]1CC(=O)NCCCC[C@@H](C(N)=O)NC(=O)[C@H](Cc2c[nH]c3ccccc23)NC(=O)[C@H](CCCNC(=N)N)NC(=O)[C@@H](Cc2ccccc2)NC(=O)[C@H](Cc2c[nH]cn2)NC1=O (some centres unmarked) [lutetium-177 labelled],,"C57 mice, tumour-bearing, muscle","intravenous, 0.037 MBq, 24 h",0.25 ± 0.13 %ID/g
CCCC[C@H](NC(=O)CCCCCCCNC(=O)CN1CCN(CC(=O)O)CCN(CC(=O)O)CC1)C(=O)N[C@H]1CC(=O)NCCCC[C@@H](C(N)=O)NC(=O)[C@H](Cc2c[nH]c3ccccc23)NC(=O)[C@H](CCCNC(=N)N)NC(=O)[C@@H](Cc2ccccc2)NC(=O)[C@H](Cc2c[nH]cn2)NC1=O [fluorine-18 labelled],,"C57 mice B16-F10 melanoma, bone","intravenous, 0.37 MBq, 2 h",0.37 ± 0.11 %ID/g
COc1ccc(Nc2nc(Nc3ccc(OCCOCC[18F])cc3)ncc2Br)cc1,,"ICR mice, S180 tumour-bearing, brain","intravenous, 370 kBq, 15 min",1.7 ± 0.13 %ID/g
CCCC[C@H](NC(=O)COCCOCCNC(=O)CN1CCN(CC(=O)O)CCN(CC(=O)O)CC1)C(=O)N[C@H]1CC(=O)NCCCC[C@@H](C(N)=O)NC(=O)[C@H](Cc2c[nH]c3ccccc23)NC(=O)[C@H](CCCNC(=N)N)NC(=O)[C@@H](Cc2ccccc2)NC(=O)[C@H](Cc2c[nH]cn2)NC1=O [fluorine-18 labelled],,"C57 mice B16-F10 melanoma, blood","intravenous, 0.37 MBq, 1 h",0.69 ± 0.17 %ID/g
N#C[C@@H]1CCCN1C(=O)CNC(=O)c1ccnc2ccc(OCCCN3CCN(C(=O)CCc4ccc(O)c(CN5CCN6CC(=O)[O][Al-]([18F])([O]C(=O)C5)[O]c5ccc(CCC(=O)N7CCN(CCCOc8ccc9nccc(C(=O)NCC(=O)N%10CCC[C@H]%10C#N)c9c8)CC7)cc5C6)c4)CC3)cc12 (some centres unmarked),,"BALB/c nude mice, U-87 MG xenograft, brain",2 h,0.11 ± 0.01 %ID/g
CCCC[C@H](NC(=O)CNC(=O)CNC(=O)[C@H](CCCCNC(=O)[C@H](CCN)NC(=O)C(C)c1ccc(CC(C)C)cc1)NC(=O)CN1CCN(CC(=O)O)CCN(CC(=O)O)CCN(CC(=O)O)CC1)C(=O)N[C@H]1CC(=O)NCCCC[C@@H](C(N)=O)NC(=O)[C@H](Cc2c[nH]c3ccccc23)NC(=O)[C@H](CCCNC(=N)N)NC(=O)[C@@H](Cc2ccccc2)NC(=O)[C@H](Cc2c[nH]cn2)NC1=O (some centres unmarked) [lutetium-177 labelled],,"C57 mice, tumour-bearing, skin",2 h,0.95 ± 0.08 %ID/g
O=C(NCC1OC2CCC=CCCC2O1)c1ccc([18F])nc1 (centres unmarked),,"healthy female BALB/c nude mice, blood","intravenous, 7.4 MBq per mouse, 2 min",5.2 ± 0.5 %ID/g
CC(C)C[C@H](NC(=O)[C@@H](CCCCNC(=O)[C@@H](Cc1ccccc1)NC(=O)CCCCCCCNC(=O)CN1CCN(CC(=O)O)CCN(CC(=O)O)CCN(CC(=O)O)CC1)NC(=O)[C@H](Cc1ccc(O)cc1)NC(=O)[C@H](CO)NC(=O)[C@H](Cc1c[nH]c2ccccc12)NC(=O)[C@H](Cc1c[nH]cn1)NC(=O)[C@@H]1CCC(=O)N1)C(=O)N[C@@H](CCCNC(=N)N)C(=O)N1CCC[C@H]1C(=O)NCC(N)=O [indium-111 labelled],,"male athymic nude mice, DU-145 xenograft, blood","intravenous, 1 h, added: 10 µg unlabelled blocking peptide",0.46 ± 0.09 %ID/g
Cc1cc(C)n(CCN(CCN)CCCCCCNC(=O)[C@@H](N)Cc2c[nH]c3ccccc23)n1.[99Tc+].[C-]#[O+].[C-]#[O+].[C-]#[O+],,"BALB/c nude mice, A549 xenograft, intestine","intravenous, 15 min",8.9 ± 1.56 %IA/g
O=C([O-])CN1CCN(CC(=O)[O-])CCN(CC(=O)NC[C@H]2CC[C@H](C(=O)N[C@H](Cc3cnc4ccccc4c3)C(=O)NCCCC[C@H](NC(=O)N[C@@H](CCC(=O)O)C(=O)O)C(=O)O)CC2)CCN(CC(=O)[O-])CC1.[64Cu+2],ex vivo gamma counting,"22Rv1 tumour-bearing mice, lung","intravenous, 0.74 MBq, 2 h post-injection",9.84 %ID/g
COc1ccc(Nc2nc(Nc3ccc(OCCOCCOCC[18F])cc3)ncc2Br)cc1,,"ICR mice, S180 tumour-bearing, muscle","intravenous, 370 kBq, 120 min",2.65 ± 0.2 %ID/g
O=C(NCC1OC2CCC=CCCC2O1)c1ccc(COCCOCCOCC[18F])cc1 (centres unmarked),,"healthy female BALB/c nude mice, large intestine","intravenous, 7.4 MBq per mouse, 30 min",7 ± 0.9 %ID/g

# For quick reference, copied from above:
Structure (SMILES),assay,system,setting,tissue uptake
O=C(NCC1OC2CCC=CCCC2O1)c1ccc(COCCOCCOCC[18F])cc1 (centres unmarked),,"healthy female BALB/c nude mice, large intestine","intravenous, 7.4 MBq per mouse, 30 min",7 ± 0.9 %ID/g
